Published values gathered from unrelated publications.
Every numbered part comes from another study and shows a few of its results, in no order. Substitutions count along the parent as printed.

Study 1 — method: DHFR PCA, deep sequencing; sample: yeast; with: (+)-ABA 58 µM; relative to: wild-type fitted maximum; direction: higher = stronger binding
Target: ABI1, truncated, D143A, DHFR fusion (Arabidopsis thaliana)
Notes: methotrexate growth selection, single substitutions
Starting sequence: PYL1, truncated, DHFR fusion (Arabidopsis thaliana); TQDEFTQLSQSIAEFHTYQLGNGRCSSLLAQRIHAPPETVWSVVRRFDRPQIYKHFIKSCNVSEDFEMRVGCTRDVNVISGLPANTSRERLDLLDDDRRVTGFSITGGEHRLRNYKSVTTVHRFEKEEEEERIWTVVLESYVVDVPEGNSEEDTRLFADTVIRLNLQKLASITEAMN
Change	relative binding score
S59Q	78.8%
Y115R	1.25%
I105R	-1.9%
E131T	98.7%
V78S	23.7%
S80I	6.9%
D3M	87.7%
R32K	93.6%
I162V	91.4%
L138D	14.2%
N165M	1.24%

Study 2 — method: RNA Bind-n-Seq; form: RNA; sample: in vitro; concentration: 200 nM; notes: whole 134-nt RNA, ends assumed; with: 150 mM LiCl; relative to: input library; direction: higher = stronger binding; each molecule: 7-deaza-guanosine replaces G
Target: Ras GTPase-activating protein-binding protein 1, full length (G3BP1, Homo sapiens, UniProt Q13283)
UniProt Q13283, sequence (whole entry, looked up): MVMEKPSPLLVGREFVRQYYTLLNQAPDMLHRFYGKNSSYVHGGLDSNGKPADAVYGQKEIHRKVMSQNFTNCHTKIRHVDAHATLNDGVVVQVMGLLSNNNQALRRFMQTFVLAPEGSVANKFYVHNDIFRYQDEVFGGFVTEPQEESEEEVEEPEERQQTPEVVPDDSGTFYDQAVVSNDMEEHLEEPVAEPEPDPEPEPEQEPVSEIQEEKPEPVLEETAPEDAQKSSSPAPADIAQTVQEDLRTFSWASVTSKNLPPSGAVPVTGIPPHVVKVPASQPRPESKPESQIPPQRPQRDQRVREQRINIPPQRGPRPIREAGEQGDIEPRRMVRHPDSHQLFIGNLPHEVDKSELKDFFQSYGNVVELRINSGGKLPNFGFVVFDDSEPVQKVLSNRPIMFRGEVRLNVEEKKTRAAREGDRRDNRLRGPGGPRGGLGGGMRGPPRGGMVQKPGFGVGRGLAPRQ
Constant ends, left off below: GGGAGUUCUACAGUCCGACGAUC … UGGAAUUCUCGGGUGUCAAGG
Sequence	log2 enrichment
GUCCUGUGCUACACAUCGUAUGUACCGAAUCGGUUUUUUUGGUUUUUUUGGAAAAAGGAAAGUAUUAUGUUACGCCGUUCGGAUCUGCAC	-1.39
UGAAAUGUUUUUUUCUCUGUCUUCUUUCAGGUCUUUGUUGAGUAUGCAAAUGCUGGUGAUUCCAAAGCUGCGCAGAAAUUACUGACUGGA	-0.751
CACAGACAACACGCACCCACACAAAAACAGAGGGAAGGGGUUGGGAUGGGGACAGGGUGCACAGCAGGGCGGGGUAGGACCCCAGCCCCU	-0.49
UAACUUUAGAGGAGGAUCUGAUGGAUAUGGCAGUGGACGAGGAUUUGGGGAUGGCUAUAAUGGGUAUGGAGGAGGACCUGGAGGUGGCAA	-0.904
AAGUCCUGUGCUACACAUCGUAUGUACCGAAUCGGUUUUGGUUUUGGGGUUUUGGGAAAGUAUUAUGUUACGCCGUUCGGAUCUGCACUU	-0.717
UUUUAAUUUGUUUGUCUCUCAUGAAACUAUGGUCUUUUAAAAAUUAAAGGUUUUUUUUUUCCCCUUAGACGAAACUGCAAAGGAAAUCCG	0.486
CCUGUGCUACACAUCGUAUGUACCGAAUCAAACCCCCCCAAACCCCCAAACCCCCCCAAAAAAGUAUUAUGUUACGCCGUUCGGAUCUGC	0.24
UCCUCAAGUCCUGUGCUACACAUCGUAUGUACCGAAUCGGGGAGGAGGAGGAAAGUAUUAUGUUACGCCGUUCGGAUCUGCACUUCCAGC	-0.669
CCUGUGCUACACAUCGUAUGUACCGAAUCGGGGAAAAAAAGGGGUUUGGGGAAAAAGGGGAAAGUAUUAUGUUACGCCGUUCGGAUCUGC	-0.689
CAAGUCCUGUGCUACACAUCGUAUGUACCGAAUCGGGUUUGGGAAAGGGAAAGGGAAAGUAUUAUGUUACGCCGUUCGGAUCUGCACUUC	0.0717
CACAGACAACACGCACCCACACAGACACAGAGGGAAGGGGUUGGGCUGGGGACAGGGUGCACAGCAGGGCGGGGUAGGACCCCAGCCCCU	-0.61

Study 3 — method: competition protein-binding microarray; form: double-stranded DNA, one strand shown; sample: in vitro; concentration: 2 µM; with: Pho4 competitor, 0.05 µM; direction: higher = stronger binding; constant ends, left off below: … GTCTTGATTCGCTTGACGCTGCTG
Target: Centromere-binding protein 1, full length, His-tagged (CBF1, Saccharomyces cerevisiae, UniProt P17106, residues 1-351)
UniProt P17106, sequence (whole entry, looked up): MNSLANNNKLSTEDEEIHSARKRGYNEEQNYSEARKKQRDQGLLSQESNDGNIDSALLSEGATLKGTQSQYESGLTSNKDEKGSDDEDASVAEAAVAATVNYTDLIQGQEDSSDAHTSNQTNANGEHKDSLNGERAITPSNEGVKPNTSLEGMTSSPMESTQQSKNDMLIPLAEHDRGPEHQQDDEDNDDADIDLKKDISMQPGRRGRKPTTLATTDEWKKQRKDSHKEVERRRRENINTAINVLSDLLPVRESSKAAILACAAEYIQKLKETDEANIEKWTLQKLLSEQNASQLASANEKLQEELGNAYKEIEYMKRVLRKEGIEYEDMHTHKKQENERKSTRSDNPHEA
Notes: whole 60-bp probe, lowest competitor level
Sequence	fluorescence intensity [a.u.]
GGGATCGAAAGAAGGGGCGTGGTGAGAAGGGTAACG	78.7
CCGGCCCGTCCCGTCCGCGTGGTGAGTAATTCTGGC	93.2
ATCAACAATTTGTTCCACGTGCGATAAAATGTCGTT	2140
CCATTCATGTCGAGTCACGTGGTGAATACAGATAAT	10400
ACCGGGAAAATCCAACACGTGATGGTCCGACATGGA	3390
AAGATTGGACTTCGGCACGGGCCTCGAACTTTCGTT	80.8
CGTCCTAGTGATTGTCACTAGACTTCCATGAGGAAG	73
AAATTACTAAGTTGCCTTGTGGGTGACGCCGTATGA	62.3
AAATTACTAAGTTGTCACCATACTTACCCCGTATGA	90
CCTCCTCTACCGTTCGACATGACAAAAAGGCGTTGG	68.8
CTAACGAAGGTTTGTAGTGTGGGTGACAAGCCAAGT	62.1
CTAACGAAGGTTTGGTCGGTGGGTGACAAGCCAAGT	62.2
GACTTCATTTGGAACATCATATAGACAAATGGAGTT	81.9
AACTTCAACACCATCACCGTGAAGAACATAGAATTT	87

Study 4 — method: RNA Bind-n-Seq; form: RNA; sample: in vitro; concentration: 365 nM; relative to: no-protein control; direction: higher = stronger binding
Target: RNA binding protein fox-1 homolog 2, RRM domain, GST-SBP tag (RBFOX2, Homo sapiens, UniProt O43251-10, residues 100-194)
Notes: natural RNA segment, single round, ends assumed
Constant ends, left off below: GGGAGUUCUACAGUCCGACGAUC … UGGAAUUCUCGGGUGCCAA
Residues (chain): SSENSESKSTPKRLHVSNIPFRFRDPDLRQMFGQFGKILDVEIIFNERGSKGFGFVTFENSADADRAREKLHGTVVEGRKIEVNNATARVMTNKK
Sequence	RBNS enrichment (R)
GUGAGAGACCAGAGGUUUUGUAUAAGUUAUUGUCCUGCUCCCUUUUCAGUUGUCUUGAAGAGCUCUUGCUACUAACUUUGGGUCCUGCUUUUCAUUUAGGUAGAUGGUAA	1.1
GUUGUCAUUCCUUUGCAACAUUAAAAUACAUGCUGAACUCAUAUUUUUCCUUCCUUCACUGUUGUAGUAAAGAGACAUAUUUCAUGAAUGGCAUUGAUGCUAAUAAAUCC	0.578
UGCCUGACGCUUCUCCACCCAGUGAUUGUGCUCCUGUCCCAAAGCACCCCGCUCAAGUCUCCCACCCCUGGUGGACCUCUGACUCUGUUGCUUUUCUUUAAGUAAAGAUU	0.461
AACCCAUUUUGAAUAUUAGCAUUGCCAAUAUCCUGUAUUCUUGUUUUACAUUUGGAUUAGAAAUUUAACAUAGUAAUUCUUAAGUCUUUUGUCUGAUUUUUAAAGUACUU	1.16
AGGCUCUUUUCAAUUGACUGAUGCUGGGGCCUUCAGUUUUAUUCUCAGUAUAGAUUGCCAGUAUUGUUAAGAGUAUCCAAAGGCCUUUCUAGAUGGAGACAGAAUAACUG	1.76
AGCCUGUCCCUGAAAGAGAAGAUGGCCAUGCCCUCCAUGUGUAAGAACAAUGCCAGGGCCCAGGAGGACCGCCUGCCCUGCCUGGGCCUUGGCUGGGCCUCUGGUUCUGA	1.77
CAACCACUGUUGGCCCAGCCUGGCUUGUGAGGAAACCAGCCCUGUCCCUCAGUAUUGAACUUGGCUGCUUGUGGGAUCCAGUCCUGGAGGACAGGCAUCAAGUUCUUAGC	0.271
UGUAAGUUGGUUUUCUUAUUUGUUGGUUUUUACGUGUGUAUAUGAGUGGUGGGUAUUGAUUAGGCCAUCAUUUCAAGAGAGUAGAUGCUAAGUUGGAUUUCGUGCUGCUG	0.708
AACUUUGGUCAGGUGUGUUUAUGGUGACAUGAUUUCUGUGGUUCCUGCCUUACAGCAGGCAGGUUGUAUGGUGAGAAGAAUGAAGGCUGUUGUAGUUACAGGUGCUCUUA	1.36
CUACUAGUAACUUUAUCAAAUUUCAAAUUACAUGGUAAAAGAUCUGUAAAGGCUGCAUCCAUGUUAGUUGGCACAUAAAGGCAAUUAAUUGUAGAAGUUGAAACAUGAUC	0.256
UUAGCAUUGCAUUUCAGUACUGACUGUGUAAGCUAAAUUGCUGAUCCAAAAUAAAAACCCAGACUAGAAUAGGGUUCUUAAAAUCAAGUAUCAAUACAAAAUAGAACACA	0.586
GUGAGCCUUAAGCAUGUGAAUCCCCCCACAUGACAAGUGGGGAGACCCAGGGUAGGCUUUCCUUUGGAUCAUCUCCAAAUGGGAGUGCCAUGUGGCAGGAAAGAAGCACC	10.3

Study 5 — target: NFIL3, bZIP domain (human); method: DHFR protein complementation; sample: yeast; relative to: wild-type JUN-FOS pair; direction: higher = stronger binding
Notes: single substitutions, most at no-binding floor
Starting sequence: JUN, bZIP domain (human); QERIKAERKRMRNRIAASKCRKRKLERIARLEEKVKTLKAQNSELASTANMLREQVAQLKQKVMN; partner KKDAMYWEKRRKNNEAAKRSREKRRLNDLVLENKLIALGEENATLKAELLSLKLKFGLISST
Change	binding fitness [natural log]
V35A	-1.34
E44F	-1.38
R30M	-1.27
K36V	-1.47
L38R	-1.46
R53P	-1.55
E32D	-1.36
S43Y	-1.46
L52T	-1.55
N42H	-1.43
A46H	-1.52
Q55P	-1.35
I28K	-1.47
I28P	-1.43

Study 6 — method: protein binding microarray; form: double-stranded DNA, one strand shown; sample: in vitro; concentration: not given; relative to: not given; direction: higher = stronger binding
Target: Histone acetyltransferase KAT6A, winged helix 1, GST fusion (KAT6A, Homo sapiens, UniProt Q92794, residues 1-85)
Notes: 8-mer, flanks averaged, mean of 2 arrays, mostly near background
Residues (chain): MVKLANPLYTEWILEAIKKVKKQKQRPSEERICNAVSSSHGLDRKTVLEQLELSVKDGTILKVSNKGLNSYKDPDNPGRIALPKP
Sequence	E-score
AAACAAGA	-0.165
CTGACACA	-0.171
AGGTTCTC	-0.0109
ACACAATC	-0.105
CCTTAGTC	-0.113
AAAGAATT	-0.103
CATGTCAA	-0.169
ATAAGAGA	-0.126
GACAGAGA	-0.144
AATCATAA	-0.254
CCCCTCGC	0.0439
CGTAAGAC	0.0993
